# Measured values of several laboratories.
# Numbered parts are unrelated; each lists some results of a single study.

# Study 1
# Target: Fragile X messenger ribonucleoprotein 1, C-terminal low-complexity region (Fmr1, Mus musculus, UniProt P35922)
# Technique: RNA Bind-n-Seq
# Molecule type: RNA
# Matrix: in vitro
# Tested at: 200 nM
# Notes: whole 134-nt RNA, ends assumed
# Added: 150 mM KCl
# Baseline: input library
# Reading: higher = stronger binding
# Constant ends, left off below: GGGAGUUCUACAGUCCGACGAUC … UGGAAUUCUCGGGUGUCAAGG
Sequence,log2 enrichment
UCCUGUGCUACACAUCGUAUGUACCGAAUCAAACCCCCAAAUUUUUAAACCCCCCCAAAAAAGUAUUAUGUUACGCCGUUCGGAUCUGCA,-0.0495
CUGUGCUACACAUCGUAUGUACCGAAUCGGGGAAAAAAAGGGGUUUUUGGGGAAAAAGGGGAAAGUAUUAUGUUACGCCGUUCGGAUCUG,-0.14
CUGUGCUACACAUCGUAUGUACCGAAUCGGGCCCCCCCGGGGCCCCCCCGGCCCCCCCGGGGAAAGUAUUAUGUUACGCCGUUCGGAUCU,-1.3
UUUCUAGGGAAGGUGCUUCUGGAAAAGUUGCUGAGGUCUUGUCCUAAGGUGAAUUCAGUAUAUGUUUUGGUGAGGCAGAAAGCUGGACAG,-1.8
CCUCAAGUCCUGUGCUACACAUCGUAUGUACCGAAUCGGAGGGGAGGGAGGGAAAGUAUUAUGUUACGCCGUUCGGAUCUGCACUUCCAG,1.41
CCUCAAGUCCUGUGCUACACAUCGUAUGUACCGAAUCGGGGCGGGGCGGGCGGAAAGUAUUAUGUUACGCCGUUCGGAUCUGCACUUCCA,0.488
AAGUCCUGUGCUACACAUCGUAUGUACCGAAUCGGGUUUUUUUGGGUUUGGGAGGGAAAGUAUUAUGUUACGCCGUUCGGAUCUGCACUU,0.776
UAACUUUAGAGGAGGAUCUGAUGGAUAUGGCAGUGUACGUGGAUUUGGGGAUGGCUAUAAUGGGUAUGGAGGAGGACCUGGAGGUGGCAA,0.235
GUCCUGUGCUACACAUCGUAUGUACCGAAUCAAAUUUUUUUAAAUUUAAAUUUUUAAAAAAGUAUUAUGUUACGCCGUUCGGAUCUGCAC,-1.18
UAACUUUAGAGGAGGAUCUGAUGGAUAUGGCAGUGCACGUGGAUUUGGGGAUGGCUAUAAUGGGUAUGGAGGAGGACCUGGAGGUGGCAA,0.224
GUCCUGUGCUACACAUCGUAUGUACCGAAUCGGGAAAAAGGGUUUGGGUUUUUUUGGGAAAGUAUUAUGUUACGCCGUUCGGAUCUGCAC,-0.28
UCCUGUGCUACACAUCGUAUGUACCGAAUCGGGUUUUUGGGAAAAAGGGUUUUUUUGGGAAAGUAUUAUGUUACGCCGUUCGGAUCUGCA,-0.149
CUCAAGUCCUGUGCUACACAUCGUAUGUACCGAAUCGGGAGGGUGGGUUUGGGAAAGUAUUAUGUUACGCCGUUCGGAUCUGCACUUCCA,1.05
CUGUGCUACACAUCGUAUGUACCGAAUCGGGGUUUUUUUGGUUUUUUUGGGUUUUUUUGGGAAAGUAUUAUGUUACGCCGUUCGGAUCUG,-0.816

# Study 2
# Target: RING finger protein unkempt homolog, zinc fingers 1-6, GST-SBP tag (UNK, Homo sapiens, UniProt Q9C0B0, residues 30-357)
# Technique: RNA Bind-n-Seq
# Molecule type: RNA
# Matrix: in vitro
# Tested at: not given
# Notes: RNA with constant flanks, ends assumed
# Baseline: input RNA pool
# Reading: higher = stronger binding
# Constant ends, left off below: GGGAGUUCUACAGUCCGACGAUC … CAACAGAGGAUUGAGCAUCA
# Target sequence (chain): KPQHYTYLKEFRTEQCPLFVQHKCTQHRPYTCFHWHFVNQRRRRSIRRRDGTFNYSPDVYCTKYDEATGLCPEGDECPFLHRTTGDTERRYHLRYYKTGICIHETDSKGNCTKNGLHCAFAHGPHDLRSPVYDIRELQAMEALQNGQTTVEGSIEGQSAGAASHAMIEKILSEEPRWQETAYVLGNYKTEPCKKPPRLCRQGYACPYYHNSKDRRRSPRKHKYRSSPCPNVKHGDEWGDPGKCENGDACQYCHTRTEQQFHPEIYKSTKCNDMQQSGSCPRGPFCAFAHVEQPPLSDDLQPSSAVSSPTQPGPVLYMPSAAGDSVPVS
Sequence,bound/input enrichment [ratio]
CCUAAUGGUGCAACCUUGCUGGUUGGUGGUUUUGGGCUGUGUGGUAUUCCAGAGAAUCUUACCGGAGCUUUACUGAAGACUGGAGUAAAAGAUCUAACUGCAGUCAGCAACAAUGCAGGG,0.0715
UCUAUUCGAAACCCCAAAGCCCGAGCCGUAACGUUAAGGGUUAAACUUUCCAGUUUGAAUUCCGACAAUCAUGCCAAGAAAAAACUCAUUAAGCUUGUAGGAGAGCGGUACUGCAAGGCC,0.192
UGUGUGGCCAGAGCUUUCACAGGAGGAAAGCGGGCUGCUGAAUUUAGUCACUGAUCUCUAUCCGCUGUGGCCUAAGGCUAUGCUGAGGUUUAUAUCCCAUUUGUACUGUUGCAGCUCAAA,0.248
GCAUCCUGUGAAAAUACUCUUAAUACAUUAAGAUAUGCAAAUAGAGUAAAGGAGUUUGGAAUCCGUCCAUCAGACAUUCCCUUCUCACAGGGUAGUGGCAGUCGCCCUGAUCUCUCUCCU,0.121
CUCUAGAUUCUGUAUCUAGAUCACCAUGGCGACUGGACAGAAGUUGAUGAGAGCUGUCCGAGUUUUUGAAUUUGGUGGGCCAGAAGUCCUGAAAUUGCGAUCAGAUAUUGCAGUACCGAU,0.163
CCCAAUGAGUUGCCAUAUAAUGAUUACUUUGAGUAUUUUGGACCAGACUUCAAACUGCAUAUCCGUCCUUCAAACAUGACAAACCAGAACACUCCAGAAUAUAUGGAAAAGAUAAAACAG,0.197
AAAGGAAGUCUAAACAAAGCAAUAGAAGAUUUUGAGCUCGCAUUAGAAAACUGCCCAACUCACCGGAAUGCAAGGAAAUAUCUCUGCCAGACACUUGUAGAAAGGGGAGGGCAGUUAGAA,2.19
GAUUGUCUUCAGUCCUGGGAACCUUGGCCUCGACAGCCCUAUUUAUGCAUACAAGUAAUAUACCGAUGAAUGUCUCAAGUAAAUAUGGCUUAUGGAUGGUAGUGGAUAAUUUGAUGAGAA,0.402
AAUCACUAAACUGUGCCUAAAGAACAUAACUGCCAUAUUAAUGUUUUGGUUUAUAUCCUCUACCGUAAUAGAAAAACAUUUAAUACUUGUAAUGCUGAUGUGUUAAUUUGAUACCAGUUG,0.374
AGAAGUUGCAAGCAGUGUUCCAAAAGUUGUAGGCUCUGCUGUUGGUAGUGGGUCCAUCACCCGUAACAUUGUGGCUUCUAGCAGUUUGCCUCCAGCUACUAUUGCUCCUCCAAAACCAGC,0.149
CAGUGGCCCCAUGGAGAGCUUUCUCUGUCUGGGAUUGAACUGAGAUCCUGAGGUUUUCUUUCCGGAAACUAAAGUAAACUUGCCAUUACUAAAUUUGUAAAGUUGAGAUUCACUCCUUAA,0.093

# Study 3
# Target: Sal-like protein 4, full length isoform A (SALL4, Homo sapiens, UniProt Q9UJQ4, residues 1-1053)
# Sequence of UniProt Q9UJQ4 (whole entry, looked up): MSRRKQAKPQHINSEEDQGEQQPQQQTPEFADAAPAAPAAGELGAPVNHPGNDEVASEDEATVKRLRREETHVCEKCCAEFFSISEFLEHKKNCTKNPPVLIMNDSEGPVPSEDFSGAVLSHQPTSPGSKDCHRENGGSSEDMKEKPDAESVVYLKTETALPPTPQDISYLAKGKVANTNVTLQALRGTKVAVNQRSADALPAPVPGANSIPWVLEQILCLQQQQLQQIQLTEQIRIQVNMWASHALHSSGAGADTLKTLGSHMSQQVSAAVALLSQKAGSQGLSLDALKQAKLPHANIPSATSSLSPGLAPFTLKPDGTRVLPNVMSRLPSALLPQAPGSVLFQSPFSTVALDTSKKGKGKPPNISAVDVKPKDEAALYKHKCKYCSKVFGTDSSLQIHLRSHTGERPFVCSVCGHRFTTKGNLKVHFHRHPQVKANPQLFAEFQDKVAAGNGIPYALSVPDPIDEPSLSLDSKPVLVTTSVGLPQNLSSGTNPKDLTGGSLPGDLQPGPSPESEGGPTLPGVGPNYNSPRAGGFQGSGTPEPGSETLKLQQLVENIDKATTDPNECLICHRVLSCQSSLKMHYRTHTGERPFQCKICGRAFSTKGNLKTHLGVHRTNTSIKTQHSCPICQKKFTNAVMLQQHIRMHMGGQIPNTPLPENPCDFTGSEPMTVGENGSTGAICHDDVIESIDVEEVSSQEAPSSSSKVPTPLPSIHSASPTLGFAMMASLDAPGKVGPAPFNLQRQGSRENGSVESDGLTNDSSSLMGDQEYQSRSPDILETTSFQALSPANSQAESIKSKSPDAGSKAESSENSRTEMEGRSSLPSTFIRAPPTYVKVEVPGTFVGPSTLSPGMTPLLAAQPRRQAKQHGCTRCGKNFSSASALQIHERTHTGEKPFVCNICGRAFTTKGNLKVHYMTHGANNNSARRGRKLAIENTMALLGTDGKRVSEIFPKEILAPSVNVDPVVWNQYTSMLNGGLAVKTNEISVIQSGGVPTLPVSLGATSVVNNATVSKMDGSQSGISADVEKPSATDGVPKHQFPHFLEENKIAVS
# Technique: universal PBM
# Molecule type: double-stranded DNA, one strand shown
# Matrix: in vitro
# Tested at: 600 nM
# Notes: 8-mer, flanks averaged, mean of replicates
# Reading: higher = stronger binding
Sequence,E-score
CGCTATAC,0.0334
CCGAACCA,-0.11
CCGTGACG,-0.172
CAGCGTAG,-0.122
ATACCCGG,-0.224
ACGCTAGT,-0.102
AACAGACT,0.0818
CGCTTGGC,-0.261
GGGGTCTA,-0.0856
GCTATAGC,0.0698
CCTGTAGC,-0.11
ACGACTCC,-0.161
CGGCGCAA,-0.227
CCGGCCAA,-0.307
CGTCCGAA,-0.196
CGCCACCC,-0.299
ACGAGTCA,0.0407
ACCACCTC,-0.0531
CAACTGAG,0.0717
CCCTTTCA,-0.0133
AAAAGTGG,0.124
AACGTCGT,-0.0869
AGGAAAGG,-0.0469
AGCTGGAT,-0.086
ACCCATAC,0.0819

# Study 4
# Target: RNA binding protein fox-1 homolog 2, RRM domain, GST-SBP tag (RBFOX2, Homo sapiens, UniProt O43251-10, residues 100-194)
# Technique: RNA Bind-n-Seq
# Molecule type: RNA
# Matrix: in vitro
# Tested at: 365 nM
# Notes: natural RNA segment, single round, ends assumed
# Baseline: no-protein control
# Reading: higher = stronger binding
# Constant ends, left off below: GGGAGUUCUACAGUCCGACGAUC … UGGAAUUCUCGGGUGCCAA
# Target sequence (chain): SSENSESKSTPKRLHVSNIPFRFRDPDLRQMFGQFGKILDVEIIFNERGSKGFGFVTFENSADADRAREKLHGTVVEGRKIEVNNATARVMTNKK
Sequence,RBNS enrichment (R)
UGUUGUUCAUCUAAAGCUUUUUAAUCCAAAUAAAUACAGAGUUUGCAAAGUGAUUUGGAUUAACCAGUUUGGUUGUUCUGUUAAAGUGGUGUCAGAUGUUUCAAGCAGAU,1.64
GAAUGUACUUUGUAUAAUUUUAGUGGAAUUAUUGUUAUUAAAGAGAAUAAAAUUUUUACAAUCAUAACUGGCUUUUUCUAAGUAACUAGCUGCAAGAAGGAAUGUAUAUC,0.722
GUAAUUUUCAAAGAAAGUGAUGUUUGUUAAAUGGGGCGAAAUAAGAAGUUAAAUUUGAAAGUGAAUGUGUUCAAAUGAAAGGCUUGACAAUUGCAUCUGUUACUAGUUUU,6.7
UCUUGAGGUGACUUAUUUUGCAUAGAGGAUAUGGAUAGACCAACAGUAAGGGUUGUGGGUUAUACCGGCAUAGAGAAAAGAAGAAAACUAGAAUUGAAACAACUGUGUCU,1.25
CUCUGGUUCCCUCCUUGCCUUCUGCUUCUCUUCCAUCUGGUUGACAACACCUAAGGUGUUGUGACUGUUCCCCCACCCAGUGCAUGUUCUUUCCCUCCAUUUCUGUGGCU,19.1
GUUACCCUUUUCGUUUACUGUGUUCUGUGAAAACUUGUAAUUGGUUGAGAAUCACUGUGGGCGUCCAUUCUUAUCAACUAAAUCUCCACAGGGUUUUUGUGCUGGUGUGG,0.463
CAUGGAGGUGGUUUAAGCAUAAUACUUAACCCAAGAAAGAGUGUAAGUGGACACAAGCUGUGCCUGCACAUAGCUGUGCAGGGUAGACUGCCUACAUACACAUGGCCGGG,0.298
UCAAAAGAGAUUUACUUUUUUAAAGGACUUUAUCUGAACAGAGAGAUAUAAUAUUUUUCCUAUUGGACAAUGGACUUGCAAAGCUUCACUUCAUUUUAAGAGCAAAAGAC,0.284
GAAAAGCCUUCUUCCUUUGCUUCAGGCAGCUGUCCCCUUCUCUUCCUUGGUGAUCCUGAGUGGGUCACUUAAGGAAAAAGUAUCAGAUUCUCACUCCAUGACCUGAUUUU,0.357
CCACCAUCUGUAUCAGCGCAUGGGGAGUGUGCAUUCUGAGGUCUAACCCGGGGUGCCAGGAACACACACAUCCUCCAUCCCAGCAUAGAGAAUGGGGACUCCCUGAGUAA,0.802
AGCUUUCUGGGAUGUCACAGUCCAACCAGAAACACCCCUCUGUCUAGGACUGCAGUGUGGAGUUCACCUUGGAAGGGCGUUCUAGGUAGGAAGAGCCCGCAGGGCCAUGC,0.297
GGGGUAUUGCCACGCUGUUGUCUUGCUGCCCAUUCACUCCAUGUGCUGCUGUCCUUCCUUCACUUCAUACUCUCAAAGAAACCAUCACCCUUUCUUCCUAUUUUUUUUUG,1.29

# Study 5
# Target: Histone acetyltransferase KAT6A, both winged helices, GST fusion (KAT6A, Homo sapiens, UniProt Q92794, residues 1-181)
# Technique: protein binding microarray
# Molecule type: double-stranded DNA, one strand shown
# Matrix: in vitro
# Tested at: not given
# Notes: 8-mer, flanks averaged, mean of 2 arrays, mostly near background
# Baseline: not given
# Reading: higher = stronger binding
# Target sequence (chain): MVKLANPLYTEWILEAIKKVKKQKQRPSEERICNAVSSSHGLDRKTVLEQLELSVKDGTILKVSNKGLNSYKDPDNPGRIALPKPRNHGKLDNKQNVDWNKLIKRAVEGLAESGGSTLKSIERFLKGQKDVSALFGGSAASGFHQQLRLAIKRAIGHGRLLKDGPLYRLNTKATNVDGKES
Sequence,E-score
TCTGTTAA,-0.0294
CCACAAAC,-0.0582
TGTCACAA,0.0246
ACGTACTC,0.0279
ACTCCGTA,0.245
CGGCGACC,0.308
GATATCTA,-0.0644
CCCTTTAG,-0.225
CCGATACG,0.203
GGACTGAC,0.00766
AAGACAGA,-0.00796
GACTTCCC,-0.065
GTTCAATA,-0.0572
CGACGGTC,0.224
CACCGTAG,0.146
ATCGACCA,-0.144
ACGTCAGT,-0.119
GCTTCTTA,-0.133
GAGTACAA,-0.0737
GACGGTCC,0.107
AGGCCTGC,0.0306
AGCGTCTG,0.182
AAATTGCC,0.0227
ACCTTCTA,-0.152
GCCGGTGA,0.157
